Assay results collected from several papers.
Every numbered part comes from another study and shows a few of its results, in no order. Substitutions count along the parent as printed.
Chain of UniProt Q9Y2X8 (whole entry, looked up): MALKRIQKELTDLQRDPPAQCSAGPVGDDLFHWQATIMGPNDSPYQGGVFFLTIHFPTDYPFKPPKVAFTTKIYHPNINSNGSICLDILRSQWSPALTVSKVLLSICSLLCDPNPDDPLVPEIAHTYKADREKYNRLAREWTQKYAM

Study 1 — method: protein-binding microarray; form: hairpin DNA; medium: in vitro; concentration: not given; baseline: not given; direction: higher = stronger binding; endpoint: median fluorescence
Target: Protein C-ets-1, full length (ETS1, Homo sapiens, UniProt P14921, residues 1-441)
Chain of UniProt P14921 (whole entry, looked up): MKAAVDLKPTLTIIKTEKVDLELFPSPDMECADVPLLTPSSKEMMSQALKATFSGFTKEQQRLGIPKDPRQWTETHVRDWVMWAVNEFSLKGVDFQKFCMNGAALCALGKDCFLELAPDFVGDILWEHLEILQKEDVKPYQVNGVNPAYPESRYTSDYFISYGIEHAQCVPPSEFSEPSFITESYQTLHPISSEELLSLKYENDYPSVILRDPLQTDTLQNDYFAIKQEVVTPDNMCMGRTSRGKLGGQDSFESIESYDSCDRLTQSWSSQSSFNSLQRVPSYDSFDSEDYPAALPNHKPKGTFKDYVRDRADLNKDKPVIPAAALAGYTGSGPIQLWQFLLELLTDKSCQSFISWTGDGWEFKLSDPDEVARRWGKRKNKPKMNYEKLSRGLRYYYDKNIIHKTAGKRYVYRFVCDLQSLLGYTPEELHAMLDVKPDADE
Setting: whole hairpin DNA, median over replicate spots
Sequence = GAGGCCCGTCGGAAGTTGCCTCCTGGCAACTTCCGACGGGCCTCACACTC; value = 2950 a.u.
Sequence = GAGGCCAGCCGGCGGTTGCCTCCTGGCAACCGCCGGCTGGCCTCACACTC; value = 577 a.u.
Sequence = GAGGCCAGTCGCGAGTTGCCTCCTGGCAACTCGCGACTGGCCTCACACTC (5mC at 12 32); value = 556 a.u.
Sequence = GAGGCCAGTCGCGAGTTGCCTCCTGGCAACTCGCGACTGGCCTCACACTC (5mC at 12); value = 551 a.u.
Sequence = GAGGCCAGCCGCAAGTTGCCTCCTGGCAACTTGCGGCTGGCCTCACACTC (5mC at 12); value = 538 a.u.
Sequence = GAGGCCAGCCGGAAATTGCCTCCTGGCAATTTCCGGCTGGCCTCACACTC; value = 8410 a.u.
Sequence = GAGGCCAGCCGGAGGTTGCCTCCTGGCAACCTCCGGCTGGCCTCACACTC (5mC at 31); value = 2420 a.u.
Sequence = GAGGCCAGTGGGAAGTTGCCTCCTGGCAACTTCCCACTGGCCTCACACTC (5mC at 35); value = 1260 a.u.

Study 2 — method: RNA Bind-n-Seq; form: RNA; medium: in vitro; concentration: 365 nM; baseline: no-protein control; direction: higher = stronger binding; endpoint: RBNS enrichment (R)
Target: RNA binding protein fox-1 homolog 2, RRM domain, GST-SBP tag (RBFOX2, Homo sapiens, UniProt O43251-10, residues 100-194)
Setting: natural RNA segment, single round, ends assumed
Constant ends, left off below: GGGAGUUCUACAGUCCGACGAUC … UGGAAUUCUCGGGUGCCAA
Construct (chain): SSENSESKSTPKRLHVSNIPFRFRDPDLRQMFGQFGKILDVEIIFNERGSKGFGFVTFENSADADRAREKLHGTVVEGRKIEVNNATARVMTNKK
Sequence = AAAAACAGCAAGACCAGAAGUGCCCAGCCCCUUGCUGACAGAUUGCUUCGUGUGUGUCCCCACACAACACACACUUAAAGCCAUCUGUCACUCUGUAAGUUAUUUUGUAC; value = 0.4
Sequence = GCACCCCCUCCCUUUCCCUUAACUCUACUUUUACAUCCCCAAACCACCUUUGUCAUCAGCUUUUCCUCUUUGCCACUGGAUCUUCAUGGAGACAUGGGCAAGCAUUAGUG; value = 2.07
Sequence = UGCAACUGAGAGGGUCUUCCUGGGCCCGCCUUCCCCGACAGCCCUAGUGUUACACUGGUUCUGGAGUGUCUCUGCGGUACAAAGAUGCACUUUUCUUCAUGGGGCAAAGU; value = 0.254
Sequence = ACUCUUGGGGGCCAAUCCCACUCUUGAGUGCAAUGGUUGCAUUUAGAAUCAGCUAGCUAGCCAGGGGCCAUCCUGUGGGUCAGUAGAUGAGGUGUGUCCUGGCCCUGCGG; value = 0.569
Sequence = ACCAGAGCAUGAUGUUGCUGGCCAGAUGACCCCUUUUGCUGUAUUGAAAUUAACUUGGUAGAUGGCUUUAGCUUAGAAAAGCAGCUUCUUAGAACCAAGGGCCUCAUUAU; value = 9.17
Sequence = GAAGCUGGUGUGAAAGGCUAGGAGGCAUUGUUUUCUAUUAUUCCUCGGUGAAGCCUUUUCCCAGAGCAUAUGUCUCCGGCAGGCAGUGUGGGUUCUUGCCAAGCAUCAGA; value = 0.787
Sequence = UGGGGGAGCAAGACUUCAUCUGUAUGUACAUUCAGAGUCUUCCCAUAGCUCUUAAACCGUGUGGGUGAAUGGUGUCUAAUUGCACCCCUUUGUGUUCUCACUUGCAUAAA; value = 0.429
Sequence = UGGAAGGGGUGCCUGUCCCCUUGGGGACAGAAGGAAAAUGAAAGGCCCCUCUGCUCACCCUGGCCAUUUACGGGAGGCUCUGCUGGUUCCACGGUGUCUGUGCAGGAUCC; value = 0.502

Study 3 — Change: L29K; method: DHFR PCA, deep sequencing; medium: yeast; baseline: wild-type fitted maximum; direction: higher = stronger binding; endpoint: relative binding score
Target: ABI1, truncated, D143A, DHFR fusion (Arabidopsis thaliana)
Setting: methotrexate growth selection, single substitutions
Parent: PYL1, truncated, DHFR fusion (Arabidopsis thaliana); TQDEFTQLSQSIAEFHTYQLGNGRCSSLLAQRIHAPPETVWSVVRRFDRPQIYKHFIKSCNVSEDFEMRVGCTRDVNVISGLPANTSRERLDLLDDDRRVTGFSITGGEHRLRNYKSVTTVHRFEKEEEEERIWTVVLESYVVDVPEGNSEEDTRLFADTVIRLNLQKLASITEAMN
added = (+)-ABA 0.11 µM; value = -0.00887%
added = (+)-ABA 200 µM; value = 80%
added = (+)-ABA 17 µM; value = 32.2%
added = (+)-ABA 4.8 µM; value = 6.42%
added = (+)-ABA 0.39 µM; value = -9.64%
added = (+)-ABA 58 µM; value = 47.6%

Single results of other studies
Molecule = BRCA1 RING domain (UniProt P38398); target = UBE2D4 UBC core domain (UniProt Q9Y2X8); assay = yeast two-hybrid; test system = yeast; conditions = mostly zero background; scale = baseline: not given, higher = stronger interaction; endpoint = lacZ reporter activity; value = 0

Some of these lines once more (study 1):
Sequence = GAGGCCCGTCGGAAGTTGCCTCCTGGCAACTTCCGACGGGCCTCACACTC; value = 2950 a.u.
Sequence = GAGGCCAGCCGGCGGTTGCCTCCTGGCAACCGCCGGCTGGCCTCACACTC; value = 577 a.u.
Sequence = GAGGCCAGCCGCAAGTTGCCTCCTGGCAACTTGCGGCTGGCCTCACACTC (5mC at 12); value = 538 a.u.
